Assay results from different studies.
A part holds a random share of what one study measured.

Series 1 — read-out: binding; technique: radioligand binding; tested at: 10 µM
Target: Kappa-type opioid receptor (OPRK1, Homo sapiens, UniProt P41145)
Chain of UniProt P41145 (whole entry, looked up): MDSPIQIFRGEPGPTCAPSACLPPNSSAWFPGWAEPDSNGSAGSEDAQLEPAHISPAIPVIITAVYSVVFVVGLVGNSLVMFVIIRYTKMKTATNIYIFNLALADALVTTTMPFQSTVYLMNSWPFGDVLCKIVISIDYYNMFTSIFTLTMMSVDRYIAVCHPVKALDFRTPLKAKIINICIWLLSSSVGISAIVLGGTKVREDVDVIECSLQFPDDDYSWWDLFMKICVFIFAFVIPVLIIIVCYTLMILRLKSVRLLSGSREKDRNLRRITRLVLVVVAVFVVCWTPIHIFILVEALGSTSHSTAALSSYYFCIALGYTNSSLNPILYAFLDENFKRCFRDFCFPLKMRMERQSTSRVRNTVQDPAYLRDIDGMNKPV
With `O=C1c2ccc(Nc3ccc(F)cc3F)cc2CCc2ccc(OC[C@H](O)CO)cc21` the inhibition was -4%.
For `Cc1c(NC(=O)c2cc(C(N)=O)nc3cc(F)ccc23)c(C(F)(F)F)nn1Cc1ccc(C(C)(C)C)cc1`, the inhibition was 22.1%.
With `Cc1nccc(COC(=O)N2C[C@@H]3[C@@H](CNC(=O)c4ccc5[nH]nnc5c4)[C@@H]3C2)n1` the inhibition was 9.47%.
`Cn1cncc1[C@](O)(COc1ccc(C#N)cc1-c1ccc(OC(F)(F)F)cc1)c1ccc(C#N)cc1` has an inhibition of -7.18%.
For `CC(=O)c1c(NS(C)(=O)=O)c2cc(-c3ccc(Cl)cc3)c(-c3ccc(Cl)cc3Cl)nc2n(C)c1=O`, the inhibition was 2.99%.
`CC(=O)Nc1nc(CN2CCC[C@H](Cc3cc(C)nc(C)c3)C2)cs1` gave an inhibition of 17.9%.
For `Cc1cc(-n2nc(Cc3cc(F)cc(C(F)(F)F)c3)nc2C)ccc1C(N)=O`, the inhibition was 16%.
For `Nc1c(C(=O)NCc2ccc(C(=O)NCCCC3CCCCC3)cc2)cnn1-c1ccccc1`, the inhibition was 38.6%.
For `CC(C)CC(=O)N1CCc2nc(-c3ccc(Br)cc3)nc(N(C)Cc3ccccc3)c2C1`, the inhibition was 38%.
The inhibition of `CNC(=O)Nc1ccc2c(c1)[C@]1(CC2)OC(=O)N(CC(=O)N(Cc2ccc(F)cc2)[C@@H](C)C(F)(F)F)C1=O` is reported as 8.21%.
`CCOCCn1cc(C(=O)Nc2ccc(-n3nc(-c4cccnc4)cc3C(F)(F)F)cn2)ccc1=O` gave an inhibition of 3.2%.
With `O=C(O)c1cc(-c2ccc(C3CCNCC3)cc2)c2ccc(-c3ccc(C(F)(F)F)cc3)cc2c1` the inhibition was 41.7%.
With `COCCc1ccc(-c2c(C)nc3c(N4CCOCC4)ccnn23)cn1` the inhibition was 14.5%.
With `O=C(Nc1cccnn1)N1CC(CC=Cc2cncc(Oc3ccc(C(F)(F)F)cn3)n2)C1` the inhibition was -16.2%.
The inhibition of `C[C@@H]1CN(c2cc(-c3nn(C)c4ccc(OC5(C)CC5)cc34)ncn2)C[C@H](C)O1` is reported as 13.1%.
`CC(=O)Nc1c(F)cc(C(=O)N[C@H]2CC[C@H](O)CC2)cc1O[C@@H](C)c1ccccc1` has an inhibition of 9.38%.
`Cc1cc(C)c(-n2ccn3nc(-c4cccnc4)cc23)cc1NC(=O)c1cc(C#N)cc(S(F)(F)(F)(F)F)c1` gave an inhibition of 89.4%.

Series 2 — cell line: mouse MPNST tumor cells; technique: high-content nuclear imaging; refers to: cell number; tested at: 10 µM; time: 12 h; setting: mean of 2 replicates; baseline: plate mean; reading: higher = more cells
`COc1cc2c(cc1F)C(c1ccccc1Cl)=Nc1c(n[nH]c1C)N2` gave a nuclei count of -0.273 z-score.
`CN(C)C(=O)Oc1cc(OC(=O)N(C)C)cc(C(O)CNC(C)(C)C)c1` (centres unmarked) has a nuclei count of 0.603 z-score.
`c1ccc(C2CC2)c(OCC2=NCCN2)c1` has a nuclei count of 1.88 z-score.
The nuclei count of `CN1CC[C@]2(c3cccc(O)c3)Cc3nc4ccccc4cc3C[C@H]2C1` is reported as 5.46 z-score.
`CC(C)CC(N(C)C)C1(c2ccc(Cl)cc2)CCC1` (centres unmarked) gave a nuclei count of 0.443 z-score.
`CCOC(=O)Nc1ccc(NCc2c(C)cc(C)cc2C)cc1N` gave a nuclei count of -5.06 z-score.
For `CN[C@@H]1C[C@@H](c2ccc(Cl)c(Cl)c2)c2ccccc21`, the nuclei count was -4.38 z-score.
For `CC(=O)NCCCOc1ccc(C(=O)N2CCC(N3C(=O)CCc4ccccc43)CC2)cc1`, the nuclei count was 1.1 z-score.

Series 3 — read-out: enzyme activity; action: inhibitor; tested at: 77 µM; baseline: untreated
Target: DNA polymerase theta, ATPase domain (POLQ, Homo sapiens, UniProt O75417)
Chain of UniProt O75417 (whole entry, unmodified, looked up): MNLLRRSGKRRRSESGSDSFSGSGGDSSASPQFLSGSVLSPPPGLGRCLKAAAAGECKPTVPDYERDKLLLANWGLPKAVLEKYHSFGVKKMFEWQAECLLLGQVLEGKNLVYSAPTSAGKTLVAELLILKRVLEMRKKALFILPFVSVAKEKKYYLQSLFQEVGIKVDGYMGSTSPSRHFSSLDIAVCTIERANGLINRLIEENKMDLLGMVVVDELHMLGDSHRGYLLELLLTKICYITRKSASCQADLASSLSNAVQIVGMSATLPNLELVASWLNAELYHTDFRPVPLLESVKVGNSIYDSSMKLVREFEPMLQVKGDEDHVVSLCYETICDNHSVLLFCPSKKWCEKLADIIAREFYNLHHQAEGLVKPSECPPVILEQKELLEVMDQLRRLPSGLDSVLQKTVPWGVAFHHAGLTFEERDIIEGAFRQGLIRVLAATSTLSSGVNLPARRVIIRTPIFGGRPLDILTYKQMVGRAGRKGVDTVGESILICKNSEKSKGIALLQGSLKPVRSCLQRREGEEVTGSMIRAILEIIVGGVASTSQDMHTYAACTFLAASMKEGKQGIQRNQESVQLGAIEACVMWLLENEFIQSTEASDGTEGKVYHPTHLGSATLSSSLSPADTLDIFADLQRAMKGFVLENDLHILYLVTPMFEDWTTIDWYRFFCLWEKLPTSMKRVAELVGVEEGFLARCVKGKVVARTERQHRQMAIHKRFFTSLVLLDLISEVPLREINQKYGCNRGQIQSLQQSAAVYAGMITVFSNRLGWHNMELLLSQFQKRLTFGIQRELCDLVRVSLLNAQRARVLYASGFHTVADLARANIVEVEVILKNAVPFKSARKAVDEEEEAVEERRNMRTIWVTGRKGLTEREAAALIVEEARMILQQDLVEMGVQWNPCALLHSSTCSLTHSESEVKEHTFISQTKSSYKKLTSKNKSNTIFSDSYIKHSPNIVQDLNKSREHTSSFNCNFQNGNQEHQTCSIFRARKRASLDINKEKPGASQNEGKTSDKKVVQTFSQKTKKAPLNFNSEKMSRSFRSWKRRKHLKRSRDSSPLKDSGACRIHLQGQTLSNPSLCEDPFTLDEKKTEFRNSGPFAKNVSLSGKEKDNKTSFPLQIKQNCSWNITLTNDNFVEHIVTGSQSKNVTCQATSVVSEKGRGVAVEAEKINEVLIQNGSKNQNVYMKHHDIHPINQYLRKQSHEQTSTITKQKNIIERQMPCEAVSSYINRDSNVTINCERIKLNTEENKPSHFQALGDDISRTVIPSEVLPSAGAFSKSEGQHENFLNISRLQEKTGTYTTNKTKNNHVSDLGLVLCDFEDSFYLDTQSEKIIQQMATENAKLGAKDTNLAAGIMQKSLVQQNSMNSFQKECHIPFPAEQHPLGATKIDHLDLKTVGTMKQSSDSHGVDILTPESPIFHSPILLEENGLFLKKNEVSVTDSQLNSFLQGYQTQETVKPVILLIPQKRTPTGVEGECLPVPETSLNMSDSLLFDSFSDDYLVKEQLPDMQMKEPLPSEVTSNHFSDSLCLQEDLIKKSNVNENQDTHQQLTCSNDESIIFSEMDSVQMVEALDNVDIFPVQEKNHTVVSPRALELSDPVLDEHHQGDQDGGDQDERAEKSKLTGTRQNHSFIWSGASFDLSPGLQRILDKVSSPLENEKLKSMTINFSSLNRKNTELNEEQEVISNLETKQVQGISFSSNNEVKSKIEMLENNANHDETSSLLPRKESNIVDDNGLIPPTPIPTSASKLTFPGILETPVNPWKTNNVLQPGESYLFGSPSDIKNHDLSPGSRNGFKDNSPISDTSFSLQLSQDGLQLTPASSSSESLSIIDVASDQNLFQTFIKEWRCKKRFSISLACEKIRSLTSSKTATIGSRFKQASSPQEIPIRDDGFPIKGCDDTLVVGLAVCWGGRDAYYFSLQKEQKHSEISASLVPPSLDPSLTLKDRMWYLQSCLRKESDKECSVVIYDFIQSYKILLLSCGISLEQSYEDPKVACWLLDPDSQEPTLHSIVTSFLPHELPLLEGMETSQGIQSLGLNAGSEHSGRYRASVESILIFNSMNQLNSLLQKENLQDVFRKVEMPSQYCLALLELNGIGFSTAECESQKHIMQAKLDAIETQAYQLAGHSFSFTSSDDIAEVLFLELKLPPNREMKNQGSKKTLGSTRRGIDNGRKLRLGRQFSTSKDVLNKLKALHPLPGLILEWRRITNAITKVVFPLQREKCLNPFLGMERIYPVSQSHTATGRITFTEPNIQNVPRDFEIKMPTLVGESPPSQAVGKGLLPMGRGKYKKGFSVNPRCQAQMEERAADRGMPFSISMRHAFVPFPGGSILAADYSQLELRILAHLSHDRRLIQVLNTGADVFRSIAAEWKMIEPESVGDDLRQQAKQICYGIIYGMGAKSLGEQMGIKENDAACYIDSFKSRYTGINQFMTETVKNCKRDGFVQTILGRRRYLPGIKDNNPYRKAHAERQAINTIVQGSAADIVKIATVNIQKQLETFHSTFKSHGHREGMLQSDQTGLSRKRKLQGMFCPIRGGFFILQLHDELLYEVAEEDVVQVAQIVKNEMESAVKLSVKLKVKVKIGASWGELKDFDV
With `C[C@@H]1C[C@@H]([C@H](O)CC2CC(=O)NC(=O)C2)C(=O)[C@@H](C)C1` the remaining activity was 101%.
The remaining activity of `COc1ccc2c(c1OC)C(=O)O[C@@H]2[C@H]1c2cc3c(cc2CCN1C)OCO3` is reported as 98.2%.
The remaining activity of `CN[C@@H]1C[C@@H](c2ccc(Cl)c(Cl)c2)c2ccccc21` is reported as 111%.
`CC(C)(C)[C@]1(O)C[C@@H]2OC(=O)C[C@@]23C(=O)O[C@@H]2OC(=O)[C@H](O)[C@]213` has a remaining activity of 101%.
`CN(C)[C@@H]1C(=O)C(C(N)=O)=C(O)[C@@]2(O)C(=O)C3=C(O)c4c(O)cccc4[C@@](C)(O)C3[C@H](O)C12` (some centres unmarked) gave a remaining activity of 98.8%.
`CC[C@@H]1/C=C/C=C/C[C@H](C)[C@H](O)[C@](C)(O)C(=O)[C@H](C)[C@@H](O)[C@H](C)C(=O)[C@H](C)[C@@H](O)[C@H](C)/C=C/C(=O)O[C@H]2[C@@H](C)[C@@H](CC1)O[C@@]1(CC[C@@H](C)[C@@H](C[C@H](C)O)O1)[C@@H]2C` has a remaining activity of 102%.

Series 4 — organism: Vesicular stomatitis virus; read-out: pseudovirus infection; technique: FDA-approved drug library screen; tested at: concentration not given; setting: VSV-G control pseudotype; baseline: vehicle
`O=C(O)C(=O)O.[NH-][C@@H]1CCCC[C@H]1[NH-].[Pt+2]` has a GFP-positive cells of 102%.
`Cc1ccc(NC(=O)C2(c3ccc4c(c3)OC(F)(F)O4)CC2)nc1-c1cccc(C(=O)O)c1` has a GFP-positive cells of 120%.
The GFP-positive cells of `CCO.C[C@H]1c2cccc(O)c2C(O)=C2C(=O)[C@]3(O)C(O)=C(C(N)=O)C(=O)[C@@H](N(C)C)[C@@H]3[C@@H](O)[C@@H]21.C[C@H]1c2cccc(O)c2C(O)=C2C(=O)[C@]3(O)C(O)=C(C(N)=O)C(=O)[C@@H](N(C)C)[C@@H]3[C@@H](O)[C@@H]21.Cl.Cl.O` is reported as 88.5%.
With `NC(N)=O` the GFP-positive cells was 84.7%.
With `CCN(CC)C(=O)C1(c2ccccc2)CC1CN.Cl` (centres unmarked) the GFP-positive cells was 120%.
The GFP-positive cells of `COc1cc2nccc(Oc3ccc(NC(=O)NC4CC4)c(Cl)c3)c2cc1C(N)=O` is reported as 117%.
With `O=C([O-])/C=C/C(=O)[O-].[Fe+2]` the GFP-positive cells was 143%.
For `Nc1nc2[nH]cc(CCc3ccc(C(=O)N[C@@H](CCC(=O)O)C(=O)O)cc3)c2c(=O)[nH]1`, the GFP-positive cells was 119%.
`CC(C(=O)[O-])c1cccc(Oc2ccccc2)c1.CC(C(=O)[O-])c1cccc(Oc2ccccc2)c1.[Ca+2]` (centres unmarked) has a GFP-positive cells of 105%.
With `CCCCC(O)c1ccccc1` (centres unmarked) the GFP-positive cells was 130%.
`CNC(=C[N+](=O)[O-])NCCSCc1ccc(CN(C)C)o1` gave a GFP-positive cells of 97.5%.
`O=C(O)CCCc1ccc(N(CCCl)CCCl)cc1` has a GFP-positive cells of 100%.
`NC[C@H](O)c1ccc(O)c(O)c1.O.O=C(O)C(O)C(O)C(=O)O` has a GFP-positive cells of 114%.
`O=C([O-])c1ccccc1[O-].[Bi+3].[OH-]` has a GFP-positive cells of 119%.
`N.N.[Cl][Pt][Cl]` has a GFP-positive cells of 101%.
The GFP-positive cells of `CO[C@@H]1[C@@H](OC(N)=O)[C@@H](O)[C@H](Oc2ccc3c([O-])c(NC(=O)c4ccc(O)c(CC=C(C)C)c4)c(=O)oc3c2C)OC1(C)C.[Na+]` is reported as 118%.
`FC(F)(F)C(Cl)Br` (centres unmarked) has a GFP-positive cells of 119%.
`C[C@]12CCC(=O)C=C1CC[C@@H]1[C@@H]2C(=O)C[C@@]2(C)[C@H]1CC[C@]2(O)C(=O)CO` has a GFP-positive cells of 96.4%.
For `O=C([O-])[C@H](O)[C@@H](O)[C@H](O)[C@H](O)CO.[Na+]`, the GFP-positive cells was 105%.
With `CN(C)[C@@H]1C(=O)C(C(N)=O)=C(O)[C@@]2(O)C(=O)C3=C(O)c4c(O)cccc4[C@@](C)(O)[C@H]3[C@H](O)[C@@H]12` the GFP-positive cells was 80.1%.
`C[C@@H]1[C@H](O)[C@@H](C)/C=C/C=C/CC/C=C/C=C/C=C/C=C/[C@H](O[C@H]2O[C@@H](C)[C@H](O)[C@@H](N)[C@H]2O)C[C@@H]2O[C@](O)(C[C@@H](O)[C@H](O)CC[C@@H](O)C[C@@H](O)C[C@@H](O)CC(=O)O[C@H]1C)C[C@H](O)[C@H]2C(=O)O` gave a GFP-positive cells of 100%.
`CN(C)CCOC(c1ccc(Cl)cc1)c1ccccn1.O=C(O)/C=C\C(=O)O` (centres unmarked) gave a GFP-positive cells of 123%.

Repeated from above (series 1):
For `Nc1c(C(=O)NCc2ccc(C(=O)NCCCC3CCCCC3)cc2)cnn1-c1ccccc1`, the inhibition was 38.6%.
For `CC(C)CC(=O)N1CCc2nc(-c3ccc(Br)cc3)nc(N(C)Cc3ccccc3)c2C1`, the inhibition was 38%.
The inhibition of `CNC(=O)Nc1ccc2c(c1)[C@]1(CC2)OC(=O)N(CC(=O)N(Cc2ccc(F)cc2)[C@@H](C)C(F)(F)F)C1=O` is reported as 8.21%.
`CCOCCn1cc(C(=O)Nc2ccc(-n3nc(-c4cccnc4)cc3C(F)(F)F)cn2)ccc1=O` gave an inhibition of 3.2%.
With `O=C(O)c1cc(-c2ccc(C3CCNCC3)cc2)c2ccc(-c3ccc(C(F)(F)F)cc3)cc2c1` the inhibition was 41.7%.
With `COCCc1ccc(-c2c(C)nc3c(N4CCOCC4)ccnn23)cn1` the inhibition was 14.5%.
With `O=C(Nc1cccnn1)N1CC(CC=Cc2cncc(Oc3ccc(C(F)(F)F)cn3)n2)C1` the inhibition was -16.2%.
